# Results from different studies.
# Protocols differ between the studies behind these lines. ± gives the spread as reported.
Compound,assay,system,conditions,how to read,quantity,result
CN1CCC[C@]1(C)/C=C/S(=O)(=O)NC(=O)Nc1c2c(cc3c1CCC3)CCC2,,"human, plasma","oral, 12.5 mg twice daily, day 14, multiple ascending dose",,Cmax after second dose,1800 ng/mL
CCCC(CCC)NC(=O)c1ccc(OC2OC(C(=O)O)C(O)C(O)C2O)c(O)c1 (centres unmarked),,"male Sprague-Dawley rat, plasma","oral, 20 mg/kg of parent drug",,Tmax,7 h
N#CC1=C(N)n2c(nnc2-c2ccccc2)NC1c1ccc(Br)cc1 (centres unmarked),,"rat male, stomach","oral, 10 mg/kg, 4 h",direction not given,ulcer severity score,0.5 ± 0.01
CCCC[C@H](NC(=O)CNC(=O)CNC(=O)CN1CCN(CC(=O)O)CCN(CC(=O)O)CCN(CC(=O)O)CC1)C(=O)N[C@H]1CC(=O)NCCCC[C@@H](C(N)=O)NC(=O)[C@H](Cc2c[nH]c3ccccc23)NC(=O)[C@H](CCCNC(=N)N)NC(=O)[C@@H](Cc2ccccc2)NC(=O)[C@H](Cc2c[nH]cn2)NC1=O [gallium-67 labelled],,"C57 mice, female, B16/F1 melanoma, tumour over blood","intravenous, 0.037 MBq, 0.5 h",,tumour to tissue uptake ratio,8.1
CC(C)c1cnc(-c2cc(Cl)ccc2F)cc1Nc1ccncc1C(=O)NC(CO)CO,,"patients, phase I monotherapy","oral, dose not given, grade 3",,patients with decreased appetite,0%
Cc1cc(C)c(-c2ccc(NC(=O)[C@H](Cc3ccc(C(=O)NCCS(=O)(=O)O)cc3)c3ccc(-c4ccc(C(C)(C)C)cc4)cc3)cc2)c(C)c1,,"mouse, HFD-induced obese","oral, 50 mg/kg once daily, 6 weeks",,daily food intake,no effect
C[C@]12C[C@H](c3ccc(-c4ccc(C(=O)O)cc4)cc3)C3=C4CCC(=O)C=C4CC[C@H]3[C@@H]1CC[C@@]2(O)C(F)(F)C(F)(F)F,,rat,"subcutaneous, 0.5 mg/kg, 0 to 24 h, efficacious exposure, steady state",,AUC(ss),573 ng·h/mL
CC12CC(c3ccc(S(C)(=O)=O)cc3)C3=C4CCC(=O)C=C4CCC3C1CCC2(O)C(F)(F)C(F)(F)F (centres unmarked),,"human, fasted, plasma","oral, 4 mg, alone, without itraconazole",,"AUC(0-24h), geometric mean",146 ng·h/mL
Fc1ccc(NCc2cn(-c3ccccc3)nc2-c2ccc(OCc3ccccc3)cc2)cc1,,"rat, gastric mucosa","oral, 60 mg/kg, 17 h",reference: control score subtracted,ulcer severity index,1.03 ± 0.13
O=C([O-])CN1CCN(CC(=O)[O-])CCN(CC(=O)NCC2CCC(C(=O)NC(Cc3ccc4ccccc4c3)C(=O)NCCCCC(NC(=O)NC(CCC(=O)O)C(=O)O)C(=O)O)CC2)CCN(CC(=O)[O-])CC1.[44Sc+3] (centres unmarked),"PET/CT dosimetry, OLINDA/EXM","human, spleen",,,organ absorbed dose,0.248 mSv/MBq
O=c1c2cc([N+](=O)[O-])ccc2n(CCBr)n1Cc1ccccc1,resazurin,"peritoneal macrophages, BALB/c mice","48 h, 10% FBS",,CC50,3.8 ± 1.7 µM
C=CC(=O)Nc1cc(Nc2nccc(-c3cn(C)c4ccccc34)n2)c(OCC(F)(F)F)nc1NC,LC-MS,human liver microsomes,"3 µM, 60 min, added: α-naphthoflavone 2 µM",reference: no inhibitor,remaining parent compound,81%
CC[C@H](C)[C@@H]1NC(=O)[C@H](Cc2ccccc2)NC(=O)[C@@H](NC(=O)[C@H](CCCNC(=N)N)NC(=O)[C@H](Cc2ccccc2)NC(=O)[C@H](Cc2ccccc2)NC(=O)[C@H](CCCCN)NC(=O)[C@H](CO)NC(=O)[C@H](CC(C)C)NC(=O)[C@H](CCCNC(=N)N)NC(=O)[C@H](CCSC)NC(=O)[C@H](C)N)CNC(=O)NCCC[C@@H](C(=O)N[C@@H](CCCNC(=N)N)C(=O)N[C@@H](CCCCN)C(=O)N[C@@H](CCCCN)C(=O)O)NC(=O)[C@H](CC(C)C)NC1=O,circular dichroism,20% TFE in PBS,"200 µM, pH 7.4, 25 °C",,helicity,22.1%
CC1=C(/C=C/C(=O)N2CCN(C(N)=O)CC2)C(C)(C)CCC1,,"female mice, plasma","oral, 40 mg/kg",,Cmax,9.32 nmol/g
O=C(CCc1ccc(CNC(C(=O)OC2CCCC2)C2CCCCC2)cn1)NO (centres unmarked),,healthy male humans,"oral, 40 mg once daily, 7 days, median",reference: day 7 over day 1,accumulation ratio AUC,1.41
CC(=O)N[C@H](CCNC(=O)c1cc(NC(=O)c2cc(NC(=O)c3cc(NC(=O)c4nccn4C)cn3C)cn2C)cn1C)C(=O)Nc1cn(C)c(C(=O)Nc2cc(C(=O)Nc3cc(C(=O)Nc4cc(C(=O)NCCCN(C)CCCN[14C](=O)c5cccc([14C](=O)O)c5)n(C)c4)n(C)c3)n(C)c2)n1,,"NSG male mice, A549 xenograft, A549 tumour","intraperitoneal, 20 nmol per animal, 24 h, 3 or 4 weeks after engraftment",,tissue concentration,0.23 mg/kg
[2H]C([2H])([2H])NC(=O)c1ccc(N2C(=S)N(c3ccc(C#N)c(C(F)(F)F)c3)C(=O)C2(C)C)cc1F,,"human, plasma","oral, 40 mg, single dose, fasted",,CL/F,272 mL/h
CC[C@H](C)[C@H](NC(=O)[C@H](Cc1ccccc1)NC(=O)[C@H](CC(=O)O)NC(=O)[C@@H]1CCCNC(=O)NCCCC[C@H](NC(=O)[C@H](CC(C)C)NC(=O)[C@H](CCCNC(=N)N)NC(=O)[C@H](CCSC)NC(=O)[C@H](C)N)C(=O)N[C@@H](CCCCN)C(=O)N[C@@H](Cc2ccccc2)C(=O)N[C@@H](Cc2ccccc2)C(=O)N1)C(=O)N[C@@H](CC(C)C)C(=O)N[C@@H](CCC(N)=O)C(=O)N[C@@H](CCCNC(=N)N)C(=O)N[C@@H](CCCCN)C(=O)N[C@@H](CCCCN)C(=O)O,circular dichroism,20% TFE in PBS,"200 µM, pH 7.4, 25 °C",,helicity,30.2%
OC1(C(F)(F)F)CCN(c2nc(Nc3ccnc(C(F)(F)F)c3)nc(-c3cccc(C(F)(F)F)n3)n2)C1 (centres unmarked),,Sprague-Dawley rat,"oral, at least 25 mg/kg, 28 days, once daily",,body weight gain,decreased
COc1cc(NC(C)=O)c2c(c1O)-c1c(OC)c(OC)cc3c1C(C2)N(C)CC3 (centres unmarked),HPLC,"male Wistar rat, plasma","oral, 200 mg/kg",,MRT(0-inf),4.04 h
CC[C@H](C)[C@H](NC(=O)[C@H](N)Cc1ccc(O)cc1)C(=O)N[C@H]1CSSC[C@@H](C(=O)N(C)[C@H](C(N)=O)[C@@H](C)CC)NC(=O)[C@H](CCCNC(=N)N)NC(=O)[C@H](Cc2c[nH]cn2)NC(=O)[C@H](C)NC(=O)CN(C)C(=O)[C@H](Cc2c[nH]c3ccccc23)NC(=O)[C@H](CC(=O)O)NC(=O)[C@H](CCC(N)=O)NC(=O)[C@H](Cc2cn(C)c3ccccc23)NC(=O)[C@H](C(C)C)NC1=O,UPLC-ESI-MS,cynomolgus monkey plasma,"0.18 µg/mL, 48 h, 25 °C, bench-top after SPE",,recovery,100.4 ± 0.5%
CCCCCCCCCCCCCCCC(=O)N[C@@H](CCCCN)C(=O)N[C@@H](CCCCN)C(=O)N[C@@H](CO)C(=O)N[C@@H](CCCNC(=N)N)C(=O)N[C@@H](C)C(=O)N[C@@H](CC(C)C)C(=O)N[C@@H](Cc1ccccc1)C(N)=O,,"cynomolgus monkey, female","10 mg/kg, day 5",,prothrombin time,11.4 ± 0.6 s
C#CCOc1ccc(/C=C2\SC(=O)N(CC(=O)NCc3ccccc3)C2=O)cc1,inverse Kirkwood-Buff integrals,binary solvent mixture,"concentration not given, 298.15 K, mole fraction x1 0.10",,correlation volume,1830 cm³/mol
COc1cc(F)c(C(C)C)cc1C1=C(CN2C(=O)O[C@H](c3cc(C(F)(F)F)cc(C(F)(F)F)c3)[C@@H]2C)CC(C)(C)CC1,non-compartmental analysis,"healthy male subjects, plasma","oral, 100 mg single dose",,Vd/F per body weight,69.9 L/kg
Cc1ccccc1/N=N/c1ccc(/N=N/c2c(O)ccc3ccccc23)c(C)c1,,extracted rat blood QC samples,"0.2 µg/L, 4 h, room temperature, short-term stability",,measured concentration,0.213 µg/L
CC(C)(Sc1cc[n+]([O-])cc1-c1ccc(C#N)c2ccccc12)C(=O)OC1OC(C(=O)O)C(O)C(O)C1O (centres unmarked),,"adult men, plasma","oral, 15 mg verinurad, severe renal impairment",reference: impaired over normal renal function,Cmax ratio,370%
O=C(Cc1ccccc1)Nc1nc2ccccc2n1Cc1ccccc1,shake-flask LC-MS/MS,water,"24 h, room temperature",,aqueous solubility,1.16 µg/mL
COC(=O)C(c1ccccc1Cl)N1CCC(SCC(=O)c2cccc(OC)c2)C(=CC(=O)O)C1 (mixture of isomers),HPLC-MS/MS,feline EDTA plasma,"100 ng/mL, 24 h, -80 °C, storage stability",,deviation from nominal,0%
COC(=O)c1ccc(CCc2cc3cc4nc(c(OC)c5[nH]c(cc6nc(cc2[nH]3)CC6(C)C)cc5CCCNC(=O)OC(C)(C)C)C(=O)C4(C)C)cc1,,DMF,room temperature,,integrated Qy/B absorption ratio,0.23
COc1ccc2cc(-c3ccc(-c4ccc(C)cn4)nc3)oc2c1,,aqueous HEPES buffer,"pH 7.4, zinc(II) complex",,fluorescence lifetime,2.42 ns
O=C([O-])CN1CCN(CC(=O)[O-])CCN(C(CCC(=O)NC(Cc2c[nH]c3ccc(O)cc23)C(=O)NCCc2c[nH]c3ccc(O)cc23)C(=O)O)CCN(CC(=O)[O-])CC1.[Gd+3] (centres unmarked),ICP-MS,"mouse, blood","iv, 0.1 mmol/kg",,fast-phase half-life,1.2 min
Cn1c(=O)oc2ccc(-c3ccc(CC(C#N)NC(=O)C4CNCCCO4)c(F)c3)cc21 (centres unmarked),item: monocyte count increased,human,"15 mg single dose, fasted",,subjects with TEAE,0%
Cc1ccc(OCC(=O)O)cc1,,"Sprague-Dawley rat, female, plasma","oral gavage, 100 mg/kg of parent drug",reference: compound over parent drug,AUC(0-last) ratio,473
CCCC[C@@H]1NC(=O)[C@@H](NC(=O)[C@H](CCC(=O)O)NC(=O)CNC(=O)CN2CCN(CC(=O)O)CCN(CC(=O)O)CCN(CC(=O)O)CC2)CCCCNC(=O)C[C@@H](C(N)=O)NC(=O)[C@H](C(C)C)NC(=O)[C@@H]2CCCN2C(=O)[C@H](CCCNC(=N)N)NC(=O)CNC(=O)[C@H](Cc2c[nH]c3ccccc23)NC(=O)[C@H](CCCNC(=N)N)NC(=O)[C@@H](Cc2ccccc2)NC(=O)[C@H](Cc2c[nH]cn2)NC(=O)[C@H](CCC(=O)O)NC1=O [gallium-67 labelled],,C57 mice with B16/F1 melanoma,"intravenous, 0.037 MBq/mouse, 24 h",reference: tumour over liver,tumour to liver ratio,20.9
N=C(N)NCCC[C@@H]1NC(=O)[C@H](Cc2c[nH]c3ccccc23)NC(=O)[C@@H](CC2CCCCC2)NC(=O)[C@@H]2CCCN2C(=O)[C@@H](NC(=O)CCc2ccccc2)CCCNC1=O,,"C57BL/6J mice, spinal cord","subcutaneous, 1 mg/kg, two-compartment model",,apparent total clearance (CL/F),1 ng/(min·ng/g)
NC(=O)/C=C/c1cccc(S(=O)(=O)Nc2ccccc2)c1,,"human, mild liver dysfunction, plasma","intravenous, 400 mg/m^2 belinostat, cycle 1 day -7, geometric mean",reference: metabolite over belinostat,Cmax metabolic ratio,0.0642
CC(O)c1cc(Cl)ccc1Cn1c(=S)[nH]c(=O)c2[nH]ccc21 (centres unmarked),,"dog, both sexes, plasma",100 mg/kg,reference: dog over human 5 mg,exposure ratio,not detected
CCCC[C@H](NC(C)=O)C(=O)N[C@H]1CC(=O)NCCCC[C@@H](C(=O)N[C@@H](C(=O)N2CCC[C@@H]2C(N)=O)C(C)C)NC(=O)[C@H](Cc2c[nH]c3ccccc23)NC(=O)[C@H](CCCN=C(N)N)NC(=O)[C@@H](Cc2ccc3ccccc3c2)NC(=O)[C@@H]2CCCN2C1=O,,"healthy dogs, plasma","subcutaneous, 2.25 mg/kg per day, day 1, 4 h post-dose, median",,plasma histamine,11.2 ng/mL
